Assay results of several laboratories.
Each numbered part is a random draw from the data of one study; scales do not carry over between parts.

Block 1 — method: protein binding microarray; form: double-stranded DNA, one strand shown; sample: in vitro; concentration: not given; relative to: not given; reading: higher = stronger binding; quantity: E-score
Target: Histone acetyltransferase KAT6A, both winged helices, GST fusion (KAT6A, Homo sapiens, UniProt Q92794, residues 1-181)
Setting: 8-mer, flanks averaged, mean of 2 arrays, mostly near background
Construct (chain): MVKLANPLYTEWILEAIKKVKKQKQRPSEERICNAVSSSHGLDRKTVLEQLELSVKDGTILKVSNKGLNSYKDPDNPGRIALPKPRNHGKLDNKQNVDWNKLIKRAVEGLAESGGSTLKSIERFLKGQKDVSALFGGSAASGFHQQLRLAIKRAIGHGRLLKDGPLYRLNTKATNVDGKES
CGTGGGTA: 0.0206
CATAGACA: -0.079
AATCCCGT: 0.213
CCTCCTGC: -0.253

Block 2 — method: RNA Bind-n-Seq; form: RNA; sample: in vitro; concentration: not given; relative to: input RNA pool; reading: higher = stronger binding; quantity: bound/input enrichment
Target: RING finger protein unkempt homolog, zinc fingers 1-6, GST-SBP tag (UNK, Homo sapiens, UniProt Q9C0B0, residues 30-357)
Setting: RNA with constant flanks, human and mouse sites, ends assumed
Residues (chain): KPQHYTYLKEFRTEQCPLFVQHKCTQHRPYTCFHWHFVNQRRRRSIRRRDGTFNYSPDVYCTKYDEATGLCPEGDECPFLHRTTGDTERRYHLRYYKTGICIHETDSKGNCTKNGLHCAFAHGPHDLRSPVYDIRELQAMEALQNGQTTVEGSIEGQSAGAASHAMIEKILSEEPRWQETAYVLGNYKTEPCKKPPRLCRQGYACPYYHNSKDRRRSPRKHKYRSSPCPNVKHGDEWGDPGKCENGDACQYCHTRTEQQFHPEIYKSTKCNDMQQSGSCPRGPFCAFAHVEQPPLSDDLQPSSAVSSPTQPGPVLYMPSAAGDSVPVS
GGGAGUUCUACAGUCCGACGAUCAACUUACAGCCUCUUUCUGAAAGGCUGACACUUCUUGCCAUUUUCAUAUCAACUUUUCUCUUUAGUCUGACAUGGCAAUUUAAUCAAUUUAUGAUGCUGAUGCAAGCAUUAGUGCUGUUCCAACAGAGGAUUGAGCAUCA: 1.56 ratio
GGGAGUUCUACAGUCCGACGAUCCGCCUUCUCAACCAGCAGCGCGAGUAUGAGGCCCAGCAGCAGUAUCGCCAACACAUCCAGGUUUUCAUCGACCGUUUUCGAUACAAUGCAAACAGAGCCUCUCAAGUGCAGAGUAAACUGCAACAGAGGAUUGAGCAUCA: 0.114 ratio
GGGAGUUCUACAGUCCGACGAUCCAGACCUACAUCAACGGGCUCCUCACGGGCUACAGCUCCACGCUAUGGAUUGGCCUUAAUGACCUGGAUACCAGUGGAGGCUGGCAGUGGUCAGACAACUCACCCCUCAAGUACCUCAACCAACAGAGGAUUGAGCAUCA: 0.067 ratio
GGGAGUUCUACAGUCCGACGAUCUCCUUCGCUCCUGUCAUCACUGGCCUGCAAAACCUGGUUGGCACAAAAAGAGUUUCAGAUCCUUCCCAGAAAAAUUCAGGCACAGAUAUGGAACCAAGGACUGUUGAGAUAAACAGGGAGCAACAGAGGAUUGAGCAUCA: 0.153 ratio

Block 3 — method: RNAcompete; form: RNA; sample: in vitro; concentration: 20 nM; setting: 7-mer, probes averaged, single round; relative to: mean of 7-mers; reading: higher = stronger binding; quantity: 7-mer Z-score
Target: PABPC1L2, full length, GST fusion (mouse, UniProt A0ABA7IW68)
Target sequence (chain): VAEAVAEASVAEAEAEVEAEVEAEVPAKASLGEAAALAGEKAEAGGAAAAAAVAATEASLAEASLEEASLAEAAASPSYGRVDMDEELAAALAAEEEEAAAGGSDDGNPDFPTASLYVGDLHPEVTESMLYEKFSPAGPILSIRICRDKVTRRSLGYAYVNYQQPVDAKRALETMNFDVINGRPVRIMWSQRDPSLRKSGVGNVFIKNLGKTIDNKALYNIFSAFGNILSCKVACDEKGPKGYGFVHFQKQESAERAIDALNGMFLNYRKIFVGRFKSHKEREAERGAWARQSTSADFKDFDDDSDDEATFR
GCCGUAG: -0.215
GCUUGGU: -0.182
ACAAUCC: -0.184

Mixed results
PhoQ, residues 284 288 289 292 302 303 GNNTDL
fold induction (PhoP, residues 12 14 15 18 19 SPWRL (Escherichia coli, UniProt P23836); Sort-seq, refers to: YFP reporter; E. coli; PhoQ-PhoP variant library, together with: 10 µM Mg2+; relative to: high Mg2+ state, higher = stronger signaling): 3.88

Some of these lines once more (block 1):
CATAGACA: -0.079
